Results of several laboratories.
Each line is one published result; not all experiments were run side by side. Numbers after ± are the reported error.
Cell line: Vero

`C[OH+][Cu-2]12[O]C(c3cn(-c4ccccc4)nc3-c3ccc(Br)cc3)=N[N+]1=C(C)c1c(cc(C)oc1=O)[O]2` (stereo not drawn) gave an IC50 of 49.8 µM (cell growth or viability, MTT; 48 h).
`CCC1NC2CC3(C(=O)N(OC)c4ccccc43)C3OCC2C1C3O` (stereo not drawn) — result for viability: “no effect” (CCK-8; up to 100 µM, 24 h).
`Cc1nc(=S)[nH]c(C)c1/N=N/c1nnc(S)[nH]1` gave an inhibition of 20.6 ± 0.549% (cell viability, MTT; 2.5 µg/mL).
Under viability, `CCC1NC2CC3(C(=O)N(OC)c4cc(OC)ccc43)C3OCC2C1C3O` (stereo not drawn) is recorded as “no effect” (CCK-8; up to 100 µM, 24 h).
`C[OH+][Cu-2]12[O]C(c3cn(-c4ccccc4)nc3-c3ccc(F)cc3)=N[N+]1=C(C)c1c(cc(C)oc1=O)[O]2` (stereo not drawn) gave an IC50 of 42.2 µM (cell growth or viability, MTT; 48 h).
The IC50 of `OC(Cn1cncn1)(Cn1cc(-[c-]2cccc2)nn1)c1ccc(F)cc1F.[Cl-].[Co+3].c1cc[cH-]c1` (racemic) is reported as 110 µM (cell growth or viability, MTT; 24 h).
`Cc1[nH]c(=S)[nH]c(=O)c1/N=N/c1nnc(S)[nH]1` has an inhibition of 9.993 ± 0.008% (cell viability, MTT; 0.625 µg/mL).
With `O=C(NCC(O)(Cn1cncn1)c1ccc(F)cc1F)[c-]1cccc1.[Cl-].[Co+3].c1cc[cH-]c1` (racemic) the IC50 was 476 µM (cell growth or viability, MTT; 24 h).
`C[OH+][Cu-2]12[O]C(c3cn(-c4ccccc4)nc3-c3ccc(C)cc3)=N[N+]1=C(C)c1c(cc(C)oc1=O)[O]2` (stereo not drawn) has an IC50 of 53.9 µM (cell growth or viability, MTT; 48 h).

Excerpt of the above:
The IC50 of `OC(Cn1cncn1)(Cn1cc(-[c-]2cccc2)nn1)c1ccc(F)cc1F.[Cl-].[Co+3].c1cc[cH-]c1` (racemic) is reported as 110 µM (cell growth or viability, MTT; 24 h).
